Results collected from several papers.
Each numbered part is a random draw from the data of one study; scales do not carry over between parts.

Sample 1
Target: Interferon regulatory factor 5, full length, phosphomimetic (IRF5, Homo sapiens, UniProt Q13568-2, residues 1-514, S451D/S453D/S456D/S462D)
Method: protein-binding microarray
Molecule type: double-stranded DNA, one strand shown
Sample: in vitro
Concentration: 940 nM top
Notes: 60-bp whole probe
Together with: salmon DNA 0.4 mg/ml
Reference: random background probes
Reading: higher = stronger binding
Quantity: fitted relative affinity
All sequences stand within: GCCTAGCAC … GTCTTGATTCGCTTGACGCTGCTG
Strand = GACGATTACAGTCTCGAGACGTGCTAG; value = 1.03 z-score
Strand = GACGATTCCAGACTGGAGACGTGCTAG; value = -0.385 z-score
Strand = TTAGATTTTTTTTCCTAATTGTGCTAG; value = 0.702 z-score
Strand = GACGGACGGGGTCTCGGGACGTGCTAG; value = 0.0629 z-score
Strand = GACGGTTTCGGGTATCGGGCCGTGCTA; value = 9.37 z-score
Strand = TGTCCTTTTCTTTACTGATGGTGCTAG; value = 1.61 z-score
Strand = TTAGGTTCCTTTTTCCTTTAGTGCTAG; value = 0.869 z-score
Strand = TTAGGTTTCGGGTTTCGATTAGTGCTA; value = 10.6 z-score
Strand = TCATAACTCATTTTCGTACTGTGCTAG; value = 1.24 z-score
Strand = GACGGTTTCGACTCTGGGGACGTGCTA; value = 7.67 z-score
Strand = GACGGACTGCTTATCCTGATGTGCTAG; value = -0.161 z-score
Strand = TCAACTCTGGAGGTTGAGACTGTGCTA; value = -0.175 z-score
Strand = TGAGGACTGGGTTTCGGTTAGTGCTAG; value = 7.18 z-score
Strand = TCGGTTTCCAAATTGTCTCTGTGCTAG; value = 1.71 z-score
Strand = GAAGACTTTGGTTTGTACACGTGCTAG; value = -0.397 z-score
Strand = TTAGGACTGCTTATCCATTAGTGCTAG; value = -0.288 z-score
Strand = TTAGGACTAGGTATCGGTTAGTGCTAG; value = 3.85 z-score
Strand = CCTAGTTTCATTCCTGATCTGTGCTAG; value = 6.29 z-score
Strand = TCATATATTATATATTTAACTGTGCTA; value = 0.56 z-score
Strand = ATAAAAGAACTCCTGGGGGAGTGCTAG; value = 0.501 z-score
Strand = TTAGAATTCAGTCTCGATTAGTGCTAG; value = 3.96 z-score
Strand = TTAGGTTTCGGGTATTGGTTAGTGCTA; value = 10.9 z-score
Strand = GACGGTATCTACACTGGGGACGTGCTA; value = 0.641 z-score
Strand = TTGTGTCTGGGCATTTTTTTAGTGCTA; value = -0.596 z-score
Strand = TTAGATAGCAGTTTCGATTAGTGCTAG; value = 6.94 z-score

Sample 2
Target: Histone acetyltransferase KAT6A, winged helix 1, GST fusion (KAT6A, Homo sapiens, UniProt Q92794, residues 1-85)
Method: protein binding microarray
Molecule type: double-stranded DNA, one strand shown
Sample: in vitro
Concentration: not given
Notes: 8-mer, flanks averaged, mean of 2 arrays, mostly near background
Reference: not given
Reading: higher = stronger binding
Quantity: E-score
Residues (chain): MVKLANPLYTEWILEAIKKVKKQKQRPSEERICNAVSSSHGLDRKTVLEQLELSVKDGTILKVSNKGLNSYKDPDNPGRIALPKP
Strand = AATTGTCC; value = -0.0954
Strand = AACCCCCC; value = -0.213
Strand = AGTCTTAC; value = -0.141
Strand = ATTTCGAG; value = -0.16
Strand = ATTCCGAC; value = 0.18
Strand = CCCTTCGA; value = -0.0138
Strand = GCTCTGAC; value = -0.0397
Strand = AGGCAGAG; value = -0.19
Strand = CTACTGTA; value = -0.0429
Strand = ACAGATAT; value = -0.181
Strand = ACATGGCA; value = -0.21
Strand = ACTGTCGA; value = -0.218
Strand = ATTGCCCC; value = -0.173
Strand = GTCTAGAC; value = -0.059
Strand = ACTTGGGC; value = -0.0692
Strand = GCGGCAAC; value = 0.36
Strand = CGCCTGAA; value = -0.0137
Strand = AGGCAACC; value = -0.127
Strand = GCCCCCGA; value = 0.139
Strand = AGGATTAC; value = -0.0586
Strand = TAATAAAA; value = -0.0446

Sample 3
Target: Centromere-binding protein 1, full length, N-terminal tag (CBF1, Saccharomyces cerevisiae, UniProt P17106, residues 1-351)
Chain of UniProt P17106 (whole entry, looked up): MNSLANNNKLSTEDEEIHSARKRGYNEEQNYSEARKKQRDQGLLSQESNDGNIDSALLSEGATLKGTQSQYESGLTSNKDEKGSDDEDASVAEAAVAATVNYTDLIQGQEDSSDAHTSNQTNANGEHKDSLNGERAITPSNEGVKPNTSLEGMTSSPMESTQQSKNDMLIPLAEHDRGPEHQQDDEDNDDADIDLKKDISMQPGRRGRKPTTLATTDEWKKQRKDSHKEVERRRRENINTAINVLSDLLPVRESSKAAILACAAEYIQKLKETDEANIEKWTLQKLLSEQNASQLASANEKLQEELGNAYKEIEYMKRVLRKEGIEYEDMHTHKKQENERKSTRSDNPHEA
Method: protein-binding microarray
Molecule type: double-stranded DNA, one strand shown
Sample: in vitro
Concentration: 0.8 µM
Notes: whole 60-bp probe, no competitor
Reading: higher = stronger binding
Quantity: fluorescence intensity
All sequences stand within: … GTCTTGATTCGCTTGACGCTGCTG
Strand = CCTAACTACTATATACATGTGAAATAGCTTCGTACA; value = 611 a.u.
Strand = GAATTCAAATGTGCTCAGCTGTGATTCATTGAATAG; value = 504 a.u.
Strand = CTACAAAAGTACAAACACGGGGAAAGAGAGCCATTC; value = 520 a.u.
Strand = CTAATTGTTTTACGCCACGTTAATAGGAACCAATTC; value = 554 a.u.
Strand = GAAAGCCCATACAACCTGATGACGAGAACGTGCTAG; value = 638 a.u.
Strand = GAAAAAAGCGTGTGTAACATCAAATAAGAGACATAG; value = 568 a.u.
Strand = GAAACGTGTATCTACATCAGAGCTGCTGAAACTTAG; value = 523 a.u.
Strand = CTAAGTAAATCGTATCACGACTGTAAATGATGGTTC; value = 650 a.u.
Strand = GAAGTGCTTCGTAGTGGTGTGAGGATGTTATAATAG; value = 519 a.u.
Strand = GAATTCGCCTGCAATCACCTGAACATGTTGGTCTAG; value = 764 a.u.
Strand = CTATGGGCGAAAAACATCGTGCGTTTACATAATTTC; value = 514 a.u.
Strand = GAATTCCGTATTTTTCACGCCATTAGAAACATTTAG; value = 595 a.u.
Strand = CTATGCCTTATCGTTCATCACATGTTATTTTTTTTC; value = 3970 a.u.
Strand = TGTACGAAGCTATACGGCATCAGTATAGTAGTTAGG; value = 501 a.u.
Strand = GAAATTCTCTAGTGTTTCGTGCTCAAATAACCGTAG; value = 528 a.u.
Strand = GAATGTTGATTTTATTTTGTGATCTTTAGAATGTAG; value = 543 a.u.
Strand = TGTACGAAGCTATATAATCACGTTATAGTAGTTAGG; value = 1400 a.u.
Strand = GAAATACTACATGACGACGTCATATATACGTATTAG; value = 512 a.u.

Sample 4
Target: Sal-like protein 4, full length isoform A (SALL4, Homo sapiens, UniProt Q9UJQ4, residues 1-1053)
Chain of UniProt Q9UJQ4 (whole entry, looked up): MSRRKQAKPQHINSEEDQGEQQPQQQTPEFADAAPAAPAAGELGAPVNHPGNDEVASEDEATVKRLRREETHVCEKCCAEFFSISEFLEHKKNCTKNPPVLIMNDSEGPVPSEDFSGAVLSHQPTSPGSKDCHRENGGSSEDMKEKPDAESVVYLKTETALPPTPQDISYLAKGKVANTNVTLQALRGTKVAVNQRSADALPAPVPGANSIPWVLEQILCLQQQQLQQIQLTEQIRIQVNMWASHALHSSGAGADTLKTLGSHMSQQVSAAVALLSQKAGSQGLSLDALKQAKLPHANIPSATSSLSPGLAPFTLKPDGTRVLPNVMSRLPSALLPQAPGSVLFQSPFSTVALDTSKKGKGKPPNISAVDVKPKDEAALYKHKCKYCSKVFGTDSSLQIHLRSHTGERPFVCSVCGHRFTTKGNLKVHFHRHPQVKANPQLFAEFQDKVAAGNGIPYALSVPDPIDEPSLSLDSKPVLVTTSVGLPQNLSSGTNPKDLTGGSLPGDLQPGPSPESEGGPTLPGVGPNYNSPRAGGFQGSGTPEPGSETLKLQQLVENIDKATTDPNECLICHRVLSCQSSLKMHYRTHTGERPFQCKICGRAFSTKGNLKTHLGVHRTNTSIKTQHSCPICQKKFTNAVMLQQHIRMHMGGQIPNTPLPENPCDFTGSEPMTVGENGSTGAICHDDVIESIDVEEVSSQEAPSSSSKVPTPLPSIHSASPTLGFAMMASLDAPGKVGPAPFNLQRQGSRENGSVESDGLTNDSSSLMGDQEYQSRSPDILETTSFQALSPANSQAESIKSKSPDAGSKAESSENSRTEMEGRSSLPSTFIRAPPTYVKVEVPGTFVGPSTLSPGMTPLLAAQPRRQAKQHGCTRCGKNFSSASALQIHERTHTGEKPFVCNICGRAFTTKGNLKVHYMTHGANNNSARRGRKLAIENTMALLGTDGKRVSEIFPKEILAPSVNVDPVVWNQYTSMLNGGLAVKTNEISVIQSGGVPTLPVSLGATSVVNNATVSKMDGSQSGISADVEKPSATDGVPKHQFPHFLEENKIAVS
Method: universal PBM
Molecule type: double-stranded DNA, one strand shown
Sample: in vitro
Concentration: 600 nM
Notes: 8-mer, flanks averaged, mean of replicates
Reading: higher = stronger binding
Quantity: E-score
Strand = ACTAGAGT; value = 0.0378
Strand = CCGCTAAA; value = -0.0521
Strand = AATAAAGT; value = 0.32
Strand = AACATCAG; value = 0.118
Strand = GATACCAC; value = 0.0343
Strand = CCGAACTA; value = -0.043
Strand = GAGGGCTA; value = -0.188
Strand = GAGTTTTA; value = 0.182
Strand = CAGAGCAG; value = 0.0944
Strand = CCCTCTAG; value = -0.0703
Strand = CCTTGCAG; value = -0.289
Strand = GGGGTACA; value = -0.247
Strand = CTCACGAA; value = -0.0783
Strand = GACCCTCA; value = -0.146
Strand = GTCAGTAA; value = 0.0874
Strand = TACGACGA; value = 0.106
Strand = CAAGTAAA; value = 0.2
Strand = ACGCCCTA; value = -0.156
Strand = AGTAACGA; value = 0.108
Strand = ATCTACCA; value = 0.151
Strand = CCGTGGAA; value = -0.0247

Sample 5
Target: RNA binding protein fox-1 homolog 2, RRM domain, GST-SBP tag (RBFOX2, Homo sapiens, UniProt O43251-10, residues 100-194)
Method: RNA Bind-n-Seq
Molecule type: RNA
Sample: in vitro
Concentration: 365 nM
Notes: natural RNA segment, single round, ends assumed
Reference: no-protein control
Reading: higher = stronger binding
Quantity: RBNS enrichment (R)
All sequences stand within: GGGAGUUCUACAGUCCGACGAUC … UGGAAUUCUCGGGUGCCAA
Construct (chain): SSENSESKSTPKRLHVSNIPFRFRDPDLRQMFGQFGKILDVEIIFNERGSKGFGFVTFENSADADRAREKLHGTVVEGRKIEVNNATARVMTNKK
Strand = AACAUGAGGGGCUUCCAUUUUCUGUGUUUUGUAAGGGAACUGUUUCCUUCAUGCCGCCAUGUUCCUGAUAUUAGUUCUGAUUUCUUUUUAACAAAUGUUAUCAUGAUUAA; value = 0.449
Strand = UCACGAAGUAGGUUUCCUCUGGCUCCCUACAGAGCAAUAUUCCAAAGGAACAUUUUAACUGUAAAGGCUAGAGACAAGAAGACAAAAGAGUAGAUCAUUUUAAUAAGAAU; value = 0.312
Strand = UGACUUUUGAUUCCUUGAACCUUUUACUUACUUGAGGUGAGGAAAUGUCUGAUAAUCUGCAAAACAAAACCUACCAAAUGGAAUCAGGGGCGACAUCUCAGUCGGUCCGG; value = 0.371
Strand = AUGGAGCAGGGAAGUACAGAGUGGGAUGGUCAGGACCUGGGCCAUUGCAACCAAAAUGGGGACUUCCUGGGUAGGGAGGUCACUCCCUCUACUCACUGAGCUAGGAUUAG; value = 0.4
Strand = AGGGAACUUUGAUCUUCCUAAGAAUUAAAGUUGCCAAAUUAUUCUGAUUGGUCUUUAAUCUCCUUUAAGUCUUUGAUAUAUAUUACUUGUUAUAAAUGGAACGCAUUAGU; value = 3.42
Strand = CUUACCUCUCCCAAGGAGGGUACACAACUAGCACCAUUCUUGAUGUCCAGGGAAGAAGCCACCUCAAGACAUAUGAGGGGUGCCCUGGGCUAAUGUUAGGGCUUAAUUUU; value = 0.318
Strand = UUGGUAGUUAAGCAAACUGACAUUACGGAAAGUGCCUUAGACACUACAGUACUAAGACAAUGUUGAAUAUAUCAUUCGCCUCUAUAACAAUUUAAUGUAUUCAGUUUUGA; value = 0.36
Strand = ACAAUCAGAACCAGGUACAAGCCAGUAAAGCGGCAGAUGACUGCCACUCAGCCCACAUACGGCAUUCUUCCCAUCCCACAGUCUUAGAGCCAGAUGAGGCUAACAAGACC; value = 0.314
Strand = CAGGUGGCCCUCCACGUGAGGUCAUGGUCACAGCAUGGAGGCCUUGAGAGCCUGGCCAGGUGGCCCUCCGUGUGAGGUCAUGGUCACAGCAUAGUUUGGAGCUAGGGAGG; value = 30.4
Strand = CCCUGGGAACUGGGGACCAACCCACCCCGGCAGCACAGUGCCUUUUUUUCUCCUGCUCUGAGUCAGGUGGGCGUCCCCUCUAGAUCCAGGUCUGGGCAGGGGUCUGAUGG; value = 0.424
Strand = GCAUCUUGGUUCCUUUACACAGCUUGAAGGGGCAGCCUGCACAGACUGAAAUAUCUUGACAGUUGAGAUGUGGUCAGGUGAAAAGCUACAUCUCCAUUACAAGUUGGAAC; value = 0.746
Strand = AAUAAUACUACUUCUCUUUCCUUAUCUGAAUCUCUAACACCUCCAUUAGAAAAGUAGAGUUUGGAGAAAUCAUCAGAAACUAUUUUUAUUCCAAACAAAAUAACCGUAGA; value = 0.9

Repeated from above (sample 5):
Strand = CCCUGGGAACUGGGGACCAACCCACCCCGGCAGCACAGUGCCUUUUUUUCUCCUGCUCUGAGUCAGGUGGGCGUCCCCUCUAGAUCCAGGUCUGGGCAGGGGUCUGAUGG; value = 0.424
Strand = UGACUUUUGAUUCCUUGAACCUUUUACUUACUUGAGGUGAGGAAAUGUCUGAUAAUCUGCAAAACAAAACCUACCAAAUGGAAUCAGGGGCGACAUCUCAGUCGGUCCGG; value = 0.371
Strand = CUUACCUCUCCCAAGGAGGGUACACAACUAGCACCAUUCUUGAUGUCCAGGGAAGAAGCCACCUCAAGACAUAUGAGGGGUGCCCUGGGCUAAUGUUAGGGCUUAAUUUU; value = 0.318
Strand = AAUAAUACUACUUCUCUUUCCUUAUCUGAAUCUCUAACACCUCCAUUAGAAAAGUAGAGUUUGGAGAAAUCAUCAGAAACUAUUUUUAUUCCAAACAAAAUAACCGUAGA; value = 0.9
Strand = AUGGAGCAGGGAAGUACAGAGUGGGAUGGUCAGGACCUGGGCCAUUGCAACCAAAAUGGGGACUUCCUGGGUAGGGAGGUCACUCCCUCUACUCACUGAGCUAGGAUUAG; value = 0.4
Strand = CAGGUGGCCCUCCACGUGAGGUCAUGGUCACAGCAUGGAGGCCUUGAGAGCCUGGCCAGGUGGCCCUCCGUGUGAGGUCAUGGUCACAGCAUAGUUUGGAGCUAGGGAGG; value = 30.4
